Published values of several laboratories.
Each numbered part is a random draw from the data of one study; scales do not carry over between parts. Changes are numbered by the printed parent chain.

Series 1 — target: CCNF, cyclin fold, Cln2 fusion (human); technique: yeast growth competition, sequencing; matrix: yeast; notes: strong parent motif; reference: not given; direction: higher = stronger binding; endpoint: normalised enrichment score
Starting sequence: WEE1 docking peptide (human); HKTFRKLRLFDTP
L7I: 2.83
P13V: 2.62
R5S: 1.86
R5Q: 1.6
K2A: 2.05
T3K: 1.24
R5K L9F: 1.37
R5Y: 1.37
T3M: 1.71
K6E: 0.792
D11V: 2.43
F4H: 3.23
P13H: 1.36
T12W: 2.51
T12F: 2.19
D11Y: 2.04
T3I: 1.72
K2G: 2.82
F4T: 1.84
K2T: 1.93
H1V: 1.61
F10W: 2.89
T3L: 1.92
L7W: 2.01
D11F: 2.39

Series 2 — technique: protein binding microarray; molecule type: double-stranded DNA, one strand shown; matrix: in vitro; concentration: not given; reference: not given; direction: higher = stronger binding; endpoint: E-score
Target: Histone acetyltransferase KAT6A, both winged helices, GST fusion (KAT6A, Homo sapiens, UniProt Q92794, residues 1-181)
Notes: 8-mer, flanks averaged, mean of 2 arrays, mostly near background
Target sequence (chain): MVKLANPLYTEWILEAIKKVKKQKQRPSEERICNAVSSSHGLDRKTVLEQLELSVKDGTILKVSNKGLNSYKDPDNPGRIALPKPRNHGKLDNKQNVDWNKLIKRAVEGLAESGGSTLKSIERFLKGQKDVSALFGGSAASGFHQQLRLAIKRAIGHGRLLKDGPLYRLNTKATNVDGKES
AATTGGAG: -0.213
GCATAGAA: -0.0344
CGCTGTGC: 0.186
GCAGACCC: 0.0119
AAAGTGAG: -0.177
GCGGTAAA: 0.274
CTTGTATA: -0.119
ACAAGCAA: -0.114
ATATAAAC: 0.0449
GATTAGAA: -0.196
CCGTTAGA: 0.208
ACTCGTGA: -0.0909
CAACGCCC: 0.107
CAGTCGCA: 0.117
AAACTACT: -0.0948
GAGCCGAC: 0.121
CGAGAGCG: 0.176
GCTTAACA: 0.115
AAACCCCC: -0.0649
GCTTGGAC: -0.0043
AAATCTAA: -0.116
CTATGGGA: -0.066
ACGAGTTG: -0.137
AGACCCGG: 0.205
AAATTCAC: -0.038

Series 3 — technique: DHFR PCA, deep sequencing; matrix: yeast; added: (+)-ABA 2500 µM; reference: wild-type fitted maximum; direction: higher = stronger binding; endpoint: relative binding score
Target: ABI1, truncated, D143A, DHFR fusion (Arabidopsis thaliana)
Notes: methotrexate growth selection, single substitutions
Starting sequence: PYL1, truncated, DHFR fusion (Arabidopsis thaliana); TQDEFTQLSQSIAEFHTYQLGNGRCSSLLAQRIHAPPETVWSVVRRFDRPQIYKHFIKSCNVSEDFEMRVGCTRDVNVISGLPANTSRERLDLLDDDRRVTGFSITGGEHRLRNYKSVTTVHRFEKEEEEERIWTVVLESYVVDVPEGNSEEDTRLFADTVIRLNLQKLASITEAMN; partner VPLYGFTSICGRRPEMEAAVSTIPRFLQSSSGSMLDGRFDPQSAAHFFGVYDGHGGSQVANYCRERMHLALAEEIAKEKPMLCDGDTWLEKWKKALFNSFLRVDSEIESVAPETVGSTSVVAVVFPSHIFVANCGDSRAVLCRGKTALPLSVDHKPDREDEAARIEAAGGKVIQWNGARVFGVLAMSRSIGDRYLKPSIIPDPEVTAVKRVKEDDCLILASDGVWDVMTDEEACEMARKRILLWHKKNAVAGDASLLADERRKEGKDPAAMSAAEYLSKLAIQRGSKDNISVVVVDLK
S117I: -2.68%
C25D: 10.2%
L156H: 95.8%
R45N: 81.9%
D95M: 93.9%
S11Y: 88.8%
V70D: 87.5%
I162S: 58.8%
V137I: 105%
K126Q: 101%
P83Y: 49.9%
D96E: 100%
S59G: 96.2%
L93I: 107%
S27K: 86.9%
F56Q: 51.2%
V70F: 79.2%
G148C: 91.7%
S9Q: 107%

Single results of other studies
PhoQ, residues 284 288 289 292 302 303 HSSMNL — fold induction (PhoP, residues 12 14 15 18 19 LHSVW (Escherichia coli, UniProt P23836); Sort-seq, item: YFP reporter; E. coli; PhoQ-PhoP variant library, added: 10 µM Mg2+; reference: high Mg2+ state, higher = stronger signaling): 3.97

Some of these lines once more (series 1):
P13V: 2.62
F4T: 1.84
R5K L9F: 1.37
L7I: 2.83
T3M: 1.71
P13H: 1.36
K2A: 2.05
D11Y: 2.04
K2G: 2.82
T12F: 2.19
R5Y: 1.37
